Measurements of several laboratories.
Each numbered part is a random draw from the data of one study; scales do not carry over between parts.
Chain of UniProt Q8WXR4 (whole entry, looked up): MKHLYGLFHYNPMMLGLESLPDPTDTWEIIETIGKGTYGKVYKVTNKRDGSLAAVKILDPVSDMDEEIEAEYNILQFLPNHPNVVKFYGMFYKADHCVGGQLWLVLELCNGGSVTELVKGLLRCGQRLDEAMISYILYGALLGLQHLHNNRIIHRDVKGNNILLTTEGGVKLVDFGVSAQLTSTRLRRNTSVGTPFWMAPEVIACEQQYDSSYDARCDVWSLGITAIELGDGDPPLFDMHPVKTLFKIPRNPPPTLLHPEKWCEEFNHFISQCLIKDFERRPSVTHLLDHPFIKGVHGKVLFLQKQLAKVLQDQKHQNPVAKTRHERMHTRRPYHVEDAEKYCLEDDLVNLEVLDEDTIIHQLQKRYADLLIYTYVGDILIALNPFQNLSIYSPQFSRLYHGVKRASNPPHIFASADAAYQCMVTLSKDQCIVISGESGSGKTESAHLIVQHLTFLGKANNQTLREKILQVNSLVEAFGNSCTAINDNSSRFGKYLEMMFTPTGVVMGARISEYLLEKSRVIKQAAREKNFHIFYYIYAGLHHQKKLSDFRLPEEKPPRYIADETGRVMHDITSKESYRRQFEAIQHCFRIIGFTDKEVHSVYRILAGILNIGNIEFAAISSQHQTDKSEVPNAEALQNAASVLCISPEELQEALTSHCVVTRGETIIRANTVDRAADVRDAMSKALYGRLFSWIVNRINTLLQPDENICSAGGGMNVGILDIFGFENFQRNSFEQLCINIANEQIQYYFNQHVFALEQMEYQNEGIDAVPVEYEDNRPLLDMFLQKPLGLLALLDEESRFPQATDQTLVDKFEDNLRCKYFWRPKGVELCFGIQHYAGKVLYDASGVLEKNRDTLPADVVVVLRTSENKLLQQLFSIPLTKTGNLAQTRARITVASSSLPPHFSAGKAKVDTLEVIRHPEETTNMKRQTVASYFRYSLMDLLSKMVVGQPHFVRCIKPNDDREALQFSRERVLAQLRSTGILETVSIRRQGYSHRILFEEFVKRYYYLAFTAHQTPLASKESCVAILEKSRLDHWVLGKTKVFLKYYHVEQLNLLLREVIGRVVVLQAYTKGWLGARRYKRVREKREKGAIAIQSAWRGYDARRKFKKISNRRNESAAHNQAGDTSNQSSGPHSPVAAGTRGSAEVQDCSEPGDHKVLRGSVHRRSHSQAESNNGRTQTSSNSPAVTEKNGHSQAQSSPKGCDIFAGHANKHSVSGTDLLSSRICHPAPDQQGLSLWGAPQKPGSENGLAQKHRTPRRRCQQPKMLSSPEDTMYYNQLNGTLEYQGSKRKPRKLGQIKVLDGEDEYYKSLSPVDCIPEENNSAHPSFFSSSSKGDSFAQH
Chain of UniProt Q6XUX3 (whole entry, looked up): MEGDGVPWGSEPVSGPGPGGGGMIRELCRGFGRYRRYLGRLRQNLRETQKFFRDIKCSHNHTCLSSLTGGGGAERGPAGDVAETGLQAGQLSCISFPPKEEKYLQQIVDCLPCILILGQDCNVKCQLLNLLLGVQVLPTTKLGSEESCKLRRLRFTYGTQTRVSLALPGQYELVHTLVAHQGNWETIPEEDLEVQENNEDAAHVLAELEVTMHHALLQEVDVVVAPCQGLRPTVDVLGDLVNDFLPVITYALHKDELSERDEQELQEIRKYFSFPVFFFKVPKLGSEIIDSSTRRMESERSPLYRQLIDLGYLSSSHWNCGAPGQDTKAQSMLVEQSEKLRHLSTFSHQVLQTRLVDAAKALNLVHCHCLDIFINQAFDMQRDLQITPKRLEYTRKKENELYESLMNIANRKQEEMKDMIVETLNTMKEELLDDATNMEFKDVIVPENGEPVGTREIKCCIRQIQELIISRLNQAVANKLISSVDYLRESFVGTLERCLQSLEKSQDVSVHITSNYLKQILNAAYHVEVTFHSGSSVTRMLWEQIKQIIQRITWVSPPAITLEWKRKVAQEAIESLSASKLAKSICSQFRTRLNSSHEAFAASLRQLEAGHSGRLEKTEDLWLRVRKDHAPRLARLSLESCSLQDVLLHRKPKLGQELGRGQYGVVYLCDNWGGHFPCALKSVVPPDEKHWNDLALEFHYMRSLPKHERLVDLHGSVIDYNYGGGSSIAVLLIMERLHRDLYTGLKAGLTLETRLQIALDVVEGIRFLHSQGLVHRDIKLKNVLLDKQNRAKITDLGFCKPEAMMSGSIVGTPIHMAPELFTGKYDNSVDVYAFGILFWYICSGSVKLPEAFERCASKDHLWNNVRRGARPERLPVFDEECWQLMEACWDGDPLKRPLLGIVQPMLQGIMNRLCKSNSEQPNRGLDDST
Chain of UniProt P51812 (whole entry, looked up): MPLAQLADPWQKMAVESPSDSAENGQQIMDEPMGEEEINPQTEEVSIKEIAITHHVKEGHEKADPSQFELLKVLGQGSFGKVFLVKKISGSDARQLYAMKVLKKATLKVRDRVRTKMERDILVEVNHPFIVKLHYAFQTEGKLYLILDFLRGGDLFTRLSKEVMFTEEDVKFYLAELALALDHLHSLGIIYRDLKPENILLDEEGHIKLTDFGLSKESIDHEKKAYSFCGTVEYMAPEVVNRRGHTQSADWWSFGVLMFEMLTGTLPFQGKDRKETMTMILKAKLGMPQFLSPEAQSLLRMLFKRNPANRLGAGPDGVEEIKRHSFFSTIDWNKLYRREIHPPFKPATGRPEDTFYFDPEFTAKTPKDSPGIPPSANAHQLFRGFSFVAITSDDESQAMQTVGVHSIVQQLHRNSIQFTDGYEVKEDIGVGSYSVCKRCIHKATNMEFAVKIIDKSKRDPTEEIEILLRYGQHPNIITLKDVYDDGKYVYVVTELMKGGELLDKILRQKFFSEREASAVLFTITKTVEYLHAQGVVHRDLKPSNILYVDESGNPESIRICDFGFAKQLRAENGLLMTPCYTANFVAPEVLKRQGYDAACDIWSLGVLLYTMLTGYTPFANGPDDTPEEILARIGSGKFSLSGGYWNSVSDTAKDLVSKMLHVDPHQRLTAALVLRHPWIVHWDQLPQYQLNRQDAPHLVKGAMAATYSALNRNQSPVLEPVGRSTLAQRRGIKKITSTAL

Set 1 — read-out: enzyme activity; action: inhibitor; tested at: 10 µM
Target: Calcium/calmodulin-dependent protein kinase type II subunit alpha (CAMK2A, Homo sapiens, UniProt Q9UQM7)
Chain of UniProt Q9UQM7 (whole entry, looked up): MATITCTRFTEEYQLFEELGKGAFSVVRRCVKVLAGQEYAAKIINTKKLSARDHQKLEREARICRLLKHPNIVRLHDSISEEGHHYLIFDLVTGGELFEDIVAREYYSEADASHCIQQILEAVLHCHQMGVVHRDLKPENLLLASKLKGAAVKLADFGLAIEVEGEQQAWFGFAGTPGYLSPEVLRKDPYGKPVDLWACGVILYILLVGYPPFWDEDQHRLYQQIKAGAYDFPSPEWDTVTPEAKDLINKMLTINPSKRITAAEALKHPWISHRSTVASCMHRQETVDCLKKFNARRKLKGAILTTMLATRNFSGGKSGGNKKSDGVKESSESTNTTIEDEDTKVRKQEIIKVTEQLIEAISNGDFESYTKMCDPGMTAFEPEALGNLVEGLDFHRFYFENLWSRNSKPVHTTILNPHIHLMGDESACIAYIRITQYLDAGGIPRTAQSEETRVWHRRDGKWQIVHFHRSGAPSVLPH
| Compound | inhibition |
| --- | --- |
| O=C(Nc1nc2cccc(-c3ccc(CN4CCS(=O)(=O)CC4)cc3)n2n1)C1CC1 | 7% |
| CC1=Nc2ccc(Cl)cc2S(=O)(=O)N1 | -11% |
| O=C[C@H](O)[C@@H](O)[C@H](O)[C@H](O)CO[C@H]1O[C@H](CO[C@H]2O[C@H](CO)[C@H](O)[C@H](O)[C@H]2O)[C@H](O)[C@H](O)[C@H]1O | -4% |
| Oc1cccc2ccccc12 | -28% |
| CCCCCCCC/C=C\CCCCCCCCCCCCCC(=O)O | 11% |
| C=CCC(=NOS(=O)(=O)O)S[C@@H]1O[C@H](CO)[C@@H](O)[C@H](O)[C@H]1O (stereo in doubt) | -41% |
| CCCCCCCCC/C=C/C(=O)CCc1ccc(O)c(OC)c1 | -30% |
| C=C1[C@H]2CC[C@@H]3[C@H]2C(C)(C)CCC[C@]13C | -29% |

Set 2 — technique: competition with immobilised ligand; tested at: 1 µM
Structure (SMILES): CCCCN(CCCC)C(=O)CN1C[C@H](c2cc(OC)c3c(c2)OCO3)[C@@H](C(=O)O)[C@@H]1CC(C)(C)CCC
| target | read-out | remaining binding |
| --- | --- | --- |
| MAP3K12 (Homo sapiens, UniProt Q12852) | cell-free assay | 72.1% |
| DSTYK (Homo sapiens, UniProt Q6XUX3) | cell-free assay | 68.6% |
| Ribosomal protein S6 kinase alpha-3, C-terminal kinase domain (RPS6KA3, Homo sapiens, UniProt P51812) | cell-free assay | 54.9% |
| Tyrosine-protein kinase ABL1, non-phosphorylated (ABL1, Homo sapiens, UniProt P00519, H396P) | cell-free assay | 96.3% |
| Myosin-IIIb (MYO3B, Homo sapiens, UniProt Q8WXR4) | binding | 88.6% |
| MAP3K19 (Homo sapiens, UniProt Q56UN5) | cell-free assay | 90.3% |

Set 3 — read-out: AlphaScreen signal; technique: AlphaScreen counter screen; sample: His6 peptide without bromodomain; tested at: 50 µM; setting: assay interference check
| Compound | inhibition [%] |
| --- | --- |
| Nc1nc(Nc2ccc(F)cc2)sc1C(=O)c1ccc(Cl)cc1 | 69.2 |
| O=S(=O)(O)c1cccc(NN=Nc2ccc(Br)cc2)c1 | 18.8 |
| CN1CCN(c2nc(C3=C(c4c[nH]c5ccccc45)C(=O)NC3=O)c3ccccc3n2)CC1 | 78.1 |
| O=C1NC(=O)C(=Cc2ccc(-c3ccccc3[N+](=O)[O-])o2)S1 | 41.5 |
| CC1(COc2ccc3c(c2)ncn3-c2ccc3cccc(N4CCC(N)CC4)c3n2)COC1 | 14.9 |
| COc1ccc(Nc2ncc3c(n2)CCN(C(=O)OC(C)(C)C)C3)cc1 | 30.8 |
| O=[N+]([O-])c1cnc(Nc2cccc(Cl)c2)nc1Nc1cccc(Cl)c1 | 29.4 |

Set 4 — read-out: enzyme activity; action: inhibitor; tested at: 0.5 µM; reference: control
Target: Ephrin type-B receptor 3 (EPHB3, Homo sapiens, UniProt P54753)
Chain of UniProt P54753 (whole entry, looked up): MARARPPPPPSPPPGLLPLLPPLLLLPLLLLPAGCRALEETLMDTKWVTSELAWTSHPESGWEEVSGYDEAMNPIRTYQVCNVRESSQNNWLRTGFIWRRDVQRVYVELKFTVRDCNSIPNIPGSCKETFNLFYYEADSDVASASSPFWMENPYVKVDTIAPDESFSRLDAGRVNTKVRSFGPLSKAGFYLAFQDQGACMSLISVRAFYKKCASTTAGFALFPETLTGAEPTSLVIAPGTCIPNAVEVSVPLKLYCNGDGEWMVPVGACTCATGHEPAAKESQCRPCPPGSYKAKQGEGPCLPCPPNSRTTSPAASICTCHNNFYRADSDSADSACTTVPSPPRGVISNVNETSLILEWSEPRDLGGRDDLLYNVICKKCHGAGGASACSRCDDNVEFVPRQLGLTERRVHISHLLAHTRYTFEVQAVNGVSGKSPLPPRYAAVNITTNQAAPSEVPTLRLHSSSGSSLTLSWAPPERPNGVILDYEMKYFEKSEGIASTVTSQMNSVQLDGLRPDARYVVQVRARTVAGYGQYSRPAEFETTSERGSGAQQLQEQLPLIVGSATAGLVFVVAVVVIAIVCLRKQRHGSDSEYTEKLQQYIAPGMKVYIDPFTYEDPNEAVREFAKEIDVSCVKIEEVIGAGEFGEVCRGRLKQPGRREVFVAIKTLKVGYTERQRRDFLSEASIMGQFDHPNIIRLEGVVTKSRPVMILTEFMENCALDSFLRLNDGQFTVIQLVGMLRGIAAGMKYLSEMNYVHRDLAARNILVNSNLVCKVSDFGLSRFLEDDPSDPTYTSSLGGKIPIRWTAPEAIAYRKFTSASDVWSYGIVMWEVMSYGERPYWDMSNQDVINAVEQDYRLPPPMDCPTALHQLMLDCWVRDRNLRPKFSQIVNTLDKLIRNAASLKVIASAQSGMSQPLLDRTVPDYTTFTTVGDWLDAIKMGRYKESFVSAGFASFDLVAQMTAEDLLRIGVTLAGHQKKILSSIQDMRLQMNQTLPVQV
| Compound | remaining activity |
| --- | --- |
| O=S(=O)(c1cccc2cnccc12)N1CCCNCC1 | 95.4% |
| Nc1ccc2ncnc(NCCc3ccc(Oc4ccccc4)cc3)c2c1 | 97.3% |
| O=C1NC(=O)C(c2cn(CCCO)c3ncccc23)=C1c1cnccn1 | 86.6% |
| Nc1ncnc2n[nH]c(Nc3ccc(F)cc3)c12 | 87.7% |
| O=C1NC(=O)C(c2cn(CCCn3ccnc3)c3ccccc23)=C1Nc1ccccc1 | 99.7% |
| Nc1[nH]nc2nc3ccccc3nc12 | 90.3% |
| Cc1nc(-c2ccccc2)c(-c2ccncc2)o1 | 99.2% |
| COc1cc2nccc(Oc3ccc(NC(=S)NC(=O)c4ccccc4C)cc3)c2cc1OC | 95.7% |
| COc1cc2ncnc(Nc3ccc(Oc4ccccc4)cc3)c2cc1OC | 103% |
| O=c1c2ccccc2[nH]c(=S)n1CCN1CCC(=C(c2ccc(F)cc2)c2ccc(F)cc2)CC1 | 92.8% |
| O=C(Nc1cccc(Nc2cc(Nc3cccc(C(F)(F)F)c3)ncn2)c1)C1CC1 | 87.9% |
| N#CC(C#N)=C(N)/C(C#N)=C/c1ccc(O)cc1 | 99.5% |
| CNC(=O)c1cc(Oc2ccc(NC(=O)Nc3ccc(Cl)c(C(F)(F)F)c3)cc2)ccn1 | 95.5% |
| CCOC(=O)c1c(C)[nH]c(/C=C2\C(=O)Nc3ccccc32)c1C | 94.4% |

A few entries again (set 4):
| Compound | remaining activity |
| --- | --- |
| O=C(Nc1cccc(Nc2cc(Nc3cccc(C(F)(F)F)c3)ncn2)c1)C1CC1 | 87.9% |
| Nc1ccc2ncnc(NCCc3ccc(Oc4ccccc4)cc3)c2c1 | 97.3% |
| Nc1[nH]nc2nc3ccccc3nc12 | 90.3% |
